Measured values gathered from unrelated publications.
Lines come from different studies, so protocols differ. “And” joins repeats or separate records; there may be more than shown.
Target: Casein kinase II subunit alpha' (CSNK2A2, Homo sapiens, UniProt P19784)

| Compound | test | system | conditions | scale | endpoint | value |
| --- | --- | --- | --- | --- | --- | --- |
| C=CC(=O)N1CCc2ccc(-n3c(=O)ccc4cnc5ccc(-c6cnn(C)c6)cc5c43)cc21 | KINOMEscan | – | 1 µM | baseline: DMSO control | remaining binding | 64% |
| COCC12C(=O)NC3C4(C(OC)CC1O)C1CC5(O)C(OC)C(O)C(OC(C)=O)(C1C5OC(=O)c1ccccc1)C3(O)C(OC)C24 (centres unmarked) | kinase activity, inhibitor, ProQinase kinase profiling | – | 25 µM | baseline: control | remaining activity | 97% and 100% |
| O=C(Cc1ccc(OCc2ccccc2)cc1)NC1(C(=O)O)CCN(C(=O)c2ccc(-c3cccc(Cl)c3)cc2)CC1 | enzyme activity, inhibitor | – | 10 µM | – | activity vs control | 110% |
| Cc1cnc2nc1Nc1cccc(c1)COC/C=C/COCc1cc(ccc1OCCN1CCOCC1)N2 | binding | – | 0.1 µM | – | remaining binding | 13% |
| COc1c(Cl)cccc1Nc1c(-c2ccncc2C#C[C@@]2(C)CCCN2C(=O)/C=C/CN(C)C)[nH]c2c1C(=O)NCC2 | cell-free assay, competition with immobilised ligand | – | 3 µM | – | remaining binding | 94% |
| CNC(=O)C1CCN(c2cc(C)c(F)cc2NC(=O)c2ccc(-c3cc(O)ccc3C)c(C)c2)CC1 | binding, competition with immobilised ligand | – | 1 µM | – | remaining binding | 100% |
| CN1CC[C@@H](COc2cnc(C#N)cc2-c2ccn3nc(NC(=O)C4CC4)cc3c2)C1 | inhibitor, KinaseProfiler panel | – | 1 µM | – | inhibition | 8% |
| N[C@H]1CC[C@H](Nc2nccc(-c3cccnc3Oc3ccc(NC(=O)NC4CC4)c4ccccc34)n2)CC1 | kinobead competition pulldown | HEK293/HCT116 lysate mixture | 10 µM, 1 h, 4 °C | lower = stronger competition | log2 LFQ intensity | 31.2 and 31 and 30.9 |
| CNC(=O)C[C@H](Cc1ccc(C#N)cc1)NC(=O)c1cc(-c2ccc(CN[C@H](C)c3ccc(C)cc3)o2)ccc1Cl | enzyme activity, inhibitor | – | 1 µM | – | activity vs control | 107% |
| Cc1ccc(-c2c(/C=C(\C#N)C(=O)NC(C)C)n(CCCO)c3ncnc(N)c23)cc1 | cell-free assay, competition with immobilised ligand | – | 1 µM | – | remaining binding | 100% |
| COc1cc(Nc2nccc(-c3cnn4nc(OC)ccc34)n2)cc(C(F)(F)F)c1 | binding, competition with immobilised ligand | – | 1 µM | – | remaining binding | 65% |
| O=C=[N][Ru-4]123([n]4c5ccc(O)cc5c5c6c(c7cc(F)c[n+]1c7c54)C(=O)NC6=O)[S+]1CC[S+]2CC[S+]3CC1 (centres unmarked) | enzyme activity | – | 100 nM, human enzyme, together with: 10 µM ATP | baseline: untreated | remaining activity | 107% |
| C=CC(=O)N1Cc2nc(-c3cc(-c4cc(Cl)cnc4Cl)c(F)cc3F)n(-c3ccncn3)c2C1 | cell-free assay, inhibitor | – | 1 µM | – | inhibition | 8.2% |
| NC(=O)C[C@H]1CCc2sc3ncnc(O[C@H]4CC[C@H](N5CCOCC5)CC4)c3c21 | enzyme activity, inhibitor | – | 10 µM | – | inhibition | 12% |

Repeated from above:
| Compound | test | system | conditions | scale | endpoint | value |
| --- | --- | --- | --- | --- | --- | --- |
| COc1cc(Nc2nccc(-c3cnn4nc(OC)ccc34)n2)cc(C(F)(F)F)c1 | binding, competition with immobilised ligand | – | 1 µM | – | remaining binding | 65% |
| CNC(=O)C1CCN(c2cc(C)c(F)cc2NC(=O)c2ccc(-c3cc(O)ccc3C)c(C)c2)CC1 | binding, competition with immobilised ligand | – | 1 µM | – | remaining binding | 100% |
